Published values collected from several papers.
Lines come from different studies, so protocols differ.
B1: NFR5 276-595 (Lotus japonicus, UniProt Q70KR1); chain ALNRTASSAETADKLLSGVSGYVSKPNVYEIDEIMEATKDFSDECKVGESVYKANIEGRVVAVKKIKEGGANEELKILQKVNHGNLVKLMGVSSGYDGNCFLVYEYAENGSLAEWLFSKSSGTPNSLTWSQRISIAVDVAVGLQYMHEHTYPRIIHRDITTSNILLDSNFKAKIANFAMARTSTNPMMPKIDVFAFGVLLIELLTGRKAMTTKENGEVVMLWKDMWEIFDIEENREERIRKWMDPNLESFYHIDNALSLASLAVNCTADKSLSRPSMAEIVLSLSFLTQQSSNPTLERSLTSSGLDVEDDAHIVTSITAR
B2: ureR N170D (Escherichia coli, UniProt P32326); chain MEYKFFLSESQMVLKAFYIESAMIAMLTGAKGNIVINGQSIEIESDVTLIIPKYSQVSCNIVCNTVKQPLELHTLSMSAEELQAVFLLLKTLMKSGAPLTSHQPIYHISPPETVRDNFSLLKQCLPLKKQSASQEALLMKQSLYFILMAIYQEGIDILNLFRFNYDEPKDQAITHLITQEPQKKWHLDDVAKALFTTPSTLRRHLNREGVSFRQLLLDVRMGMALNYLTFSNYSVFQISHRCGFGSNAYFCDVFKRKYNMTPSQFRLQSRQSNDPNFITNLSLRSNPIEFDKEIDE
B3: MS2 coat protein dimer fused single-chain dimer 2-130 (bacteriophage MS2, UniProt P03612); sequence looked up; chain ASNFTQFVLVDNGGTGDVTVAPSNFANGVAEWISSNSRSQAYKVTCSVRQSSAQNRKYTIKVEVPKVATQTVGGVELPVAAWRSYLNMELTIPIFATNSDCELIVKAMQGLLKDGNPIPSAIAANSGIYASNFTQFVLVDNGGTGDVTVAPSNFANGVAEWISSNSRSQAYKVTCSVRQSSAQNRKYTIKVEVPKVATQTVGGVELPVAAWRSYLNMELTIPIFATNSDCELIVKAMQGLLKDGNPIPSAIAANSGIY
B4: FADD L8G (Homo sapiens, UniProt Q13158); chain MDPFLVLGHSVSSSLSSSELTELKFLCLGRVGKRKLERVQSGLDLFSMLLEQNDLEPGHTELLRELLASLRRHDLLRRVDDFEAGAAAGAAPGEEDLCAAFNVICDNVGKDWRRLARQLKVSDTKIDSIEDRYPRNLTERVRESLRIWKNTEKENATVAHLVGALRSCQMNLVADLVQEVQQARDLQNRSGAMSPMSWNSDASTSEAS
B5: pnp 1-763 K534A (Mycobacterium smegmatis, UniProt A0QVQ5); chain MSVVELEDGVYESTAVIDNGSFGTRTIRFETGRLAQQAAGSAVAYLDDETMLLSATTASKNPKDHFDFFPLTVDVEERMYAAGRIPGSFFRREGRPSTDAILTCRLIDRPLRPSFVDGLRNEIQVVVTVMSLDPKDLYDVLAINAASMSTQLAGLPFSGPVGGARIALIDGTWVAFPTVEQLERAVFDMVVAGRIVGDGDSADVAIMMVEAEATENVVELVAGGAQAPTEAVVAEGLEAAKPFIKALCAAQQELADRAAKPAGEYPVFPDYEADVYDAVASVATEALAEALTIAGKTERNDRTDEIKVEVLERLAEPYAGREKEIGAAFRSLTKKLVRQRILTDHFRIDGRGITDIRALSAEVAVIPRAHGSALFERGETQILGVTTLDMIKMAQQIDSLGPENTKRYMHHYNFPPYSTGETGRVGSPKRREIGHGALAERALVPVLPSIEEFPYAIRQVSEALGSNGSTSMGSVCASTLALLNAGVPLKAPVAGIAMGLVSDDVDVDGKVEKRYVALTDILGAEDAFGDMDFAVAGTKDFVTALQLDTKLDGIPSQVLAGALSQAKDARLTILDVMAEAIDRPDEMSPYAPRITTIKVPVDKIGEVIGPKGKMINSITEETGAQISIEDDGTVFVGAADGLSAQAAIDKINAIANPQLPKVGERFLGTVVKTTDFGAFVSLLPGRDGLVHISKLGKGKRIAKVEDVVKVGDKLRVEIADIDNRGKISLVLVAEESAESAESAGDKGAEKAEGAAADVTPAEA
B6: pecS 15-179 (Pectobacterium atrosepticum, UniProt Q6D5K4); chain DAVDAILEQWRRERPDLDASPMGPIGRLRRCAVLMDQRLESCFSRFDLSSWEFDMLATLRRAGAPHCLSPTELFSTLMVTSGTMTHRLKRLETRGFIERVQNELDARSTLVQLTSSGLELINRAVEAHIENERQVLSVLPAEVLAALDTNLAALLRGLESHNKGN
B7: glnR 120-223 (Saccharopolyspora erythraea, UniProt A4FQD5); chain EGDGMLTVGDLVIEESTYTARLKGRALELTYKEFELLKYLAQHAGRVFTRAQLLQEVWGYDFFGGTRTVDVHVRRLRAKLGPEYDSMIGTVRNVGYKFVRPSRS
B8: pomB 1-315 D24N (Vibrio alginolyticus, UniProt O06874); chain MDDEDNKCDCPPPGLPLWMGTFANLMSLLMCFFVLLLSFSEMDVLKFKQIAGSMKFAFGVQNQLEVKDIPKGTSIIAQEFRPGRPEPTPIDVIMQQTMDITQQTLEFHEGESDRAGGTKRDEGKLTGGQSPATSTQNNESAEADMQQQQSKEMSQEMETLMESIKKALEREIEQGAIEVENLGQQIVIRMREKGAFPEGSAFLQPKFRPLVRQIAELVKDVPGIVRVSGHTDNRPLDSELYRSNWDLSSQRAVSVAQEMEKVRGFSHQRLRVRGMADTEPLLPNDSDDNRALNRRVEISIMQGEPLYSEEVPVIQ
B9: pnp 1-763 F68A (Mycobacterium smegmatis, UniProt A0QVQ5); chain MSVVELEDGVYESTAVIDNGSFGTRTIRFETGRLAQQAAGSAVAYLDDETMLLSATTASKNPKDHFDAFPLTVDVEERMYAAGRIPGSFFRREGRPSTDAILTCRLIDRPLRPSFVDGLRNEIQVVVTVMSLDPKDLYDVLAINAASMSTQLAGLPFSGPVGGARIALIDGTWVAFPTVEQLERAVFDMVVAGRIVGDGDSADVAIMMVEAEATENVVELVAGGAQAPTEAVVAEGLEAAKPFIKALCAAQQELADRAAKPAGEYPVFPDYEADVYDAVASVATEALAEALTIAGKTERNDRTDEIKVEVLERLAEPYAGREKEIGAAFRSLTKKLVRQRILTDHFRIDGRGITDIRALSAEVAVIPRAHGSALFERGETQILGVTTLDMIKMAQQIDSLGPENTKRYMHHYNFPPYSTGETGRVGSPKRREIGHGALAERALVPVLPSIEEFPYAIRQVSEALGSNGSTSMGSVCASTLALLNAGVPLKAPVAGIAMGLVSDDVDVDGKVEKRYVALTDILGAEDAFGDMDFKVAGTKDFVTALQLDTKLDGIPSQVLAGALSQAKDARLTILDVMAEAIDRPDEMSPYAPRITTIKVPVDKIGEVIGPKGKMINSITEETGAQISIEDDGTVFVGAADGLSAQAAIDKINAIANPQLPKVGERFLGTVVKTTDFGAFVSLLPGRDGLVHISKLGKGKRIAKVEDVVKVGDKLRVEIADIDNRGKISLVLVAEESAESAESAGDKGAEKAEGAAADVTPAEA
Sequence of UniProt P02548 (whole entry, looked up): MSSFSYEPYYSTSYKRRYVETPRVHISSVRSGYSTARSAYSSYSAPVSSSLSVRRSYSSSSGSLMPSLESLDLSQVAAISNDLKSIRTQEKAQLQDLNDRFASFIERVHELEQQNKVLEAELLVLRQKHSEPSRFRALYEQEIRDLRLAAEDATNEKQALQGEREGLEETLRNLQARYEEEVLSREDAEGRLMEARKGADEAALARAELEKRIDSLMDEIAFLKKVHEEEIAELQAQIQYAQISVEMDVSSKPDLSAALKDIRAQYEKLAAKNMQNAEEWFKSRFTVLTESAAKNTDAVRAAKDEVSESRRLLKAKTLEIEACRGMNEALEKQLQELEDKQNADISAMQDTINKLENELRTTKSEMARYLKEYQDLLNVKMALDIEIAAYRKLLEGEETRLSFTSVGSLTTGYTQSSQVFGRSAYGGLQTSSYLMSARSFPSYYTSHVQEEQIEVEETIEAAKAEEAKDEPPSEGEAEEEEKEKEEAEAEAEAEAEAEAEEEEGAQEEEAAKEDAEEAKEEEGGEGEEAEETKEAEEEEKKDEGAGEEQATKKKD

`B1 (NFR5 276-595)`: binding “binds” (itself; native gel).
`B2 (ureR N170D)` — result for binding: “binds” (itself; SEC).
Under binding, `B3` is recorded as “binds” (itself; SEC, TEM, DLS).
With `insulin human` the fold change was 1.01 (item: NR4A1 mRNA; EcoHIV-infected mouse, brain; i.p., dose not given; relative to: PBS).
For `B4 (FADD L8G)`, binding read “binds” (itself; SEC).
For `B5 (pnp 1-763 K534A)`, binding read “binds” (itself; SEC).
For `B6 (pecS 15-179)`, binding read “binds” (itself; crystal structure).
For `B7 (glnR 120-223)`, binding read “binds” (itself; crystal structure).
For `B8 (pomB 1-315 D24N)`, binding read “binds” (itself; cryo-EM structure).
For `B9 (pnp 1-763 F68A)`, binding read “binds” (itself; SEC).
`NEFL (Bos taurus, UniProt P02548)` — result for binding: “binds” (itself; electron microscopy).

Excerpt of the above:
For `B5 (pnp 1-763 K534A)`, binding read “binds” (itself; SEC).
